Results from different studies.
± gives the spread as reported.

O=Cc1c(O)cc(O)cc1O[C@@H]1O[C@H](CO)[C@@H](O)[C@H](O)[C@H]1O  IC50 (Hepa-1c1c7; cell growth or viability): > 100 µM
O=C(N=P12CN3CN(CN(C3)C1)C2)c1ccccc1Br  IC50 (Jurkat; cytotoxicity, MTT; 24 h, 1% DMSO): > 500 µM
Nc1ccn([C@@H]2O[C@H](CO)[C@@H](O)C2(F)F)c(=O)n1  IC50 (HuCCT-1; cell growth, MTT; 72 h): < 5 µg/mL
c1ccc2[nH]c(-c3ccc(OCc4cn(CCN5CCOCC5)nn4)cc3)nc2c1  IC50 (Z-138; cell growth or viability, MTS; 72 h): 45.8 µM
CSc1nc(NC(=O)C(=NNc2ccc(S(=O)(=O)Nc3ncccn3)cc2)C(C)=O)cc(N)c1C#N  IC50 (A-431; cell growth or viability, MTT; 48 h): 6.15 µM
CCCS(=O)(=O)Nc1ccc(F)c(C(=O)c2c[nH]c3ncc(-c4ccc(Cl)cc4)cc23)c1F  IC50 (A-375 inducible BRAF V600E modest; ERK signalling, Western blot; 1 h, with: 0.02 µg/mL doxycycline): 0.1 to 0.3 µM
CCN(CC)CCOc1ccc(-c2nc3ccccc3[nH]2)cc1  IC50 (Z-138; cell growth or viability, MTS; 72 h): 46.2 µM
N.N.O=C([O-])C1(C(=O)[O-])CCC1.[Pt+2]  IC50 (NCI-H838; cell growth or viability, MTT; 4 h): 224 µM
C=CC(=O)N1CCC[C@@H](n2nc(-c3ccc(Oc4ccccc4)cc3)c3c(N)ncnc32)C1  IC50 (OCI-Ly10; cell growth or viability, CCK-8; 72 h): 0.467 µM
CCn1c(-c2cccnc2[C@H](C)OC)c2c3cc(ccc31)-c1cccc(c1)C[C@H](NC(=O)[C@H](C(C)C)N1CC[C@]3(CCN(C(=O)C#CC(C)(C)N(C)C)C3)C1=O)C(=O)N1CCC[C@H](N1)C(=O)OCC(C)(C)C2  IC50 (KRAS G12C mutant cell lines; cell growth, 3D CellTiter-Glo; 120 h): 0.00028 µM
O=C1CNC(=O)c2coc(n2)-c2coc(n2)-c2cccc(c2)-c2cccc(c2)-c2nc(co2)-c2nc(co2)CN1  IC50 (RPMI 8402; cytotoxicity, MTT; 4 days, 10% fetal bovine serum): ≤ 3.5 µM
CN1CCN(c2ccc3nc(-c4c(N)c5c(F)cccc5[nH]c4=O)[nH]c3c2)CC1  IC50 (NCI-H460; cell growth or viability, MTT; 72 h): 15.8 µM
CCC[C@H](NC(=O)c1ccc(CCCc2cc3c(=O)[nH]c(N)nc3[nH]2)s1)C(=O)O  IC50 (CHO RT16 (human FRα); cell growth; with: folic acid 200 nM): > 1 µM
O=c1[nH]c2ccccc2nc1/C=C/c1ccc(F)cc1  IC50 (B16-F10; cell growth or viability, MTT; 72 h): 4.96 µM
Cc1c(C)n(-c2c(C(C)C)cccc2C(C)C)[c](=[Au][Se]c2ccccc2)n1-c1c(C(C)C)cccc1C(C)C  IC50 (Vero E6; cytotoxicity, crystal violet staining; 96 h): > 100 µM
COc1cccc(/C=C/c2nc3ccccc3[nH]c2=O)c1OC  IC50 (B16-F10; cell growth or viability, MTT; 72 h): 5.83 µM
c1ccc(-c2ccccn2)nc1  IC50 (A549, B16-F10, Caco-2, HT-29; cell viability; dark): > 100 µM
c1ccc2[nH]c(-c3ccc(OCCN4CCOCC4)cc3)nc2c1  IC50 (Z-138; cell growth or viability, MTS; 72 h): 48.3 µM
CN(C)CCn1cnc2ccc(-c3ccc4sc(NC(=O)Nc5ccc(F)cc5)nc4c3)cc2c1=O  IC50 (BEAS-2B; cell growth or viability, MTT; 72 h): 1.28 µM
CC(C)Oc1ccc(C(=O)Cn2ccnc2)cc1-n1c(CN2CCN(C(=O)COc3ccc(Cl)cc3)CC2)nc2ccccc2c1=O  IC50 (U2932; cell viability, CellTiter-Glo; 24 h): > 10 µM
[NH2][Pt]12([NH2])([O]C(=O)CC(=O)[O]1)[O]C(=O)CC(=O)[O]2  IC50 (CH1; cell viability, MTT; 96 h): 32 ± 9 µM
CC(=O)O[C@H]1C(=O)[C@@]2(C)[C@H]([C@H](OC(=O)c3ccccc3)[C@]3(O)C[C@H](OC(=O)[C@H](O)[C@@H](NC(=O)c4ccccc4)c4ccccc4)C(C)=C1C3(C)C)[C@]1(OC(C)=O)CO[C@@H]1C[C@@H]2O  IC50 (HCT-8/T (compound-resistant); cell viability, CCK-8; 72 h): > 20 µM
CC(C)C[C@H](NC(=O)[C@@H](NC(=O)[C@@H]1CCCN1C(=O)[C@@H](NC(=O)[C@H](CO)NC(=O)[C@@H](NC(=O)[C@H](CCC(N)=O)NC(=O)[C@@H]1CCCN1C(=O)[C@@H](NC(=O)[C@H](CCCCN)NC(=O)[C@H](CCCCN)NC(=O)[C@@H](NC(=O)[C@H](Cc1ccc(O)cc1)NC(=O)[C@H](CCCNC(=N)N)NC(=O)[C@@H](NC(=O)[C@@H](N)CC(C)C)C(C)C)[C@@H](C)O)C(C)C)C(C)C)[C@@H](C)O)[C@@H](C)O)C(=O)O  IC50 (SUP-T1; AKT phosphorylation, inhibitor, phosphoflow cytometry; with: CXCL12 100 ng/mL, 2 min): 67.6 ± 30.6 µM
O=c1c(/C=C/c2ccccc2Cl)nc2ccccc2n1Cc1ccccc1  IC50 (B16-F10; cell growth or viability, MTT; 72 h): 3.93 µM
C#CCOc1ccc(/C=N\NC(=O)c2ccccc2)cc1  IC50 (T47D; cell growth or viability, MTT; 48 h): 208 µM
C#Cc1cccc(Nc2ncnc3cc(OCCOC)c(OCCOC)cc23)c1  IC50 (A-431; cell growth or viability, MTT; 48 h): 11.1 µM
C[C@H](Cn1cnc2c(N)ncnc21)OCP(=O)(O)O  IC50 (HepG2.A64, entecavir-resistant; cell growth; 96 h): 210 µM
COc1cc([C@@H]2c3cc4c(cc3[C@@H](O[C@@H]3O[C@@H]5CO[C@@H](C)O[C@H]5[C@H](O)[C@H]3O)[C@H]3COC(=O)[C@H]23)OCO4)cc(OC)c1O  IC50 (HCT-15/ADM2; cell growth, XTT; 72 h): 4.42 µg/mL
CNC(=O)c1cc(Oc2ccc(NC(=O)Nc3ccc(Cl)c(C(F)(F)F)c3)cc2)ccn1  IC50 (LMC-3 with DHFR overexpression; cell viability, MTT): > 3 µM
CCC(CC)CSc1nc2c([nH]1)c(=S)n(C)c(=O)n2C  IC50 (T47D; alkaline phosphatase activity, antagonist; 24 h, with: progesterone 2.5 nM): 1.2 µM
OC[C@H]1O[C@@H](Oc2cc3c(O)cc(O)cc3[o+]c2-c2ccc(O)c(O)c2)[C@H](O)[C@@H](O)[C@@H]1O  IC50 (Hepa-1c1c7; cell growth or viability): > 100 µM
Cc1ccc(C(C)C)cc1.Cc1ccc(C(C)C)cc1.[Cl][Ru][Cl].[Cl][Ru][Cl]  IC50 (L929; cell growth or viability, trypan blue; 48 h): 243 µM
Cc1ncsc1-c1ccc([C@H](C)NC(=O)[C@@H]2C[C@@H](O)CN2C(=O)[C@@H](NC(=O)CCCCCC(=O)N2CCN(CC[C@H](CSc3ccccc3)Nc3ccc(S(=O)(=O)NC(=O)c4ccc(N5CCN(CC6=C(c7ccc(Cl)cc7)CCC(C)(C)C6)CC5)cc4)cc3S(=O)(=O)C(F)(F)F)CC2)C(C)(C)C)cc1  IC50 (Loucy; cell growth, CCK-8; 48 h): 0.002 µM
O=c1[nH]cc(F)c(=O)[nH]1  IC50 (ReNcell VM; cell viability, live/dead 3D alginate microarray; 24 h exposure plus 48 h): 8.4 µM
O=c1c(/C=C/c2ccccc2)nc2ccccc2n1Cc1ccccc1  IC50 (B16-F10; cell growth or viability, MTT; 72 h): 14.2 µM
Cc1cc(O)cc2c1OC(C)(CCCC(C)CCCC(C)CCCC(C)C(=O)O)CC2 (stereo not shown)  IC50 (differentiated HL-60; LTB4 formation; 10 min pre-incubation, with: thapsigargin): 11 µM
NC(=S)N/N=C\c1ccc(OCc2cn(CC(=O)Nc3nc4ccccc4s3)nn2)cc1  IC50 (T47D; cell growth or viability, MTT; 48 h): 54 µM
CC(C)C[C@H](NC(=O)C(CSc1c(F)c(F)c(F)c(F)c1F)NC(=O)[C@@H](NC(=O)Cc1c(F)c(F)c(F)c(F)c1F)C(C)C)C(=O)[C@@]1(C)CO1 (stereo in doubt)  IC50 (NCI-H460; cell growth or viability): 0.723 µM
CCN(CC)CCOc1ccc(-c2nc3ccc(Cl)cc3[nH]2)cc1F  IC50 (Z-138; cell growth or viability, MTS; 72 h): 2 µM
COc1cccc2c1C(=O)c1c(O)c3c(c(O)c1C2=O)C[C@@](O)(C(=O)CO)C[C@@H]3O[C@H]1C[C@H](N)[C@H](O)[C@H](C)O1  IC50 (MCF7 multidrug-resistant; cell growth, MTT; 24 h): > 100 µM
O=C1c2cccc(O)c2C(=O)c2c(O)cc(CO)cc21  IC50 (Jurkat; cell growth or viability, ATP luminescence; 24 h): 185 µM
Cc1cc(C)c(N2CCN(c3c(C)cc(C)cc3C)[C]2=[Au][Se]c2ccccc2)c(C)c1  IC50 (Vero E6; cytotoxicity, crystal violet staining; 96 h): 6 ± 0.3 µM
COc1cccc2c1C(=O)c1c(O)c3c(c(O)c1C2=O)C[C@@](O)(C(=O)CO)C[C@@H]3O[C@H]1C[C@H](N)[C@@H](O)[C@H](C)O1  IC50 (HCT-15/ADM2; cell growth, XTT; 72 h): 6.6 µg/mL
O=C(/C=C/c1ccc(CN2CCCCC2)c(O)c1)c1ccc(Br)cc1  IC50 (WRL68 human normal liver cells; cytotoxicity, MTT; 72 h): > 100 µM
COc1cc(/C=C/C(=O)N2CCC=CC2=O)cc(OC)c1OC  IC50 (Hs-578T; cell growth or viability, MTT): 3 µM
O=C(Cn1cc(COc2ccc(/C=N\Nc3ccc([N+](=O)[O-])cc3[N+](=O)[O-])cc2)nn1)Nc1nc2ccccc2s1  IC50 (T47D; cell growth or viability, MTT; 48 h): 95 µM
Fc1ccccc1/C=C/c1nc2ccccc2nc1Cl  IC50 (NCI-H460; cell growth or viability, MTT; 72 h): 34 µM
C=CC[n+]1ccc(-c2c3nc(c(-c4cc[n+](CC=C)cc4)c4ccc([nH]4)c(-c4ccc(OCCCCCCCCCCCCCCCC)c(OC)c4)c4nc(c(-c5cc[n+](CC=C)cc5)c5ccc2[nH]5)C=C4)C=C3)cc1  IC50 (KCL-22; cell viability, vital dye exclusion; 48 h, light, 30 mW/cm2, 25 min): 0.7 ± 0.1 µM
O=c1[nH]c2ccccc2nc1/C=C/c1ccccc1[N+](=O)[O-]  IC50 (B16-F10; cell growth or viability, MTT; 72 h): 40.5 µM
CC1COc2c(N3CCN(C)CC3)c(F)cc3c(=O)c(C(=O)[O-])cn1c23.Cc1ccc(C(C)C)cc1.[Cl-].[Ru+2] (stereo not shown)  IC50 (CH1; cell growth or viability, MTT; 96 h): 18 µM
Cn1c(=O)c(/C=C/c2ccc(F)cc2)nc2ccccc21  IC50 (B16-F10; cell growth or viability, MTT; 72 h): 0.03 µM
C=CC(=O)N1CCC(Oc2cc3c(Nc4ccc(Cl)c(Cl)c4F)ncnc3cc2OC)CC1  IC50 (A-431; cell viability, CellTiter-Glo; 72 h): < 0.1 µM

Excerpt of the above:
O=C(Cn1cc(COc2ccc(/C=N\Nc3ccc([N+](=O)[O-])cc3[N+](=O)[O-])cc2)nn1)Nc1nc2ccccc2s1  IC50 (T47D; cell growth or viability, MTT; 48 h): 95 µM
CC(C)C[C@H](NC(=O)[C@@H](NC(=O)[C@@H]1CCCN1C(=O)[C@@H](NC(=O)[C@H](CO)NC(=O)[C@@H](NC(=O)[C@H](CCC(N)=O)NC(=O)[C@@H]1CCCN1C(=O)[C@@H](NC(=O)[C@H](CCCCN)NC(=O)[C@H](CCCCN)NC(=O)[C@@H](NC(=O)[C@H](Cc1ccc(O)cc1)NC(=O)[C@H](CCCNC(=N)N)NC(=O)[C@@H](NC(=O)[C@@H](N)CC(C)C)C(C)C)[C@@H](C)O)C(C)C)C(C)C)[C@@H](C)O)[C@@H](C)O)C(=O)O  IC50 (SUP-T1; AKT phosphorylation, inhibitor, phosphoflow cytometry; with: CXCL12 100 ng/mL, 2 min): 67.6 ± 30.6 µM
c1ccc2[nH]c(-c3ccc(OCc4cn(CCN5CCOCC5)nn4)cc3)nc2c1  IC50 (Z-138; cell growth or viability, MTS; 72 h): 45.8 µM
Fc1ccccc1/C=C/c1nc2ccccc2nc1Cl  IC50 (NCI-H460; cell growth or viability, MTT; 72 h): 34 µM
C[C@H](Cn1cnc2c(N)ncnc21)OCP(=O)(O)O  IC50 (HepG2.A64, entecavir-resistant; cell growth; 96 h): 210 µM
Cc1c(C)n(-c2c(C(C)C)cccc2C(C)C)[c](=[Au][Se]c2ccccc2)n1-c1c(C(C)C)cccc1C(C)C  IC50 (Vero E6; cytotoxicity, crystal violet staining; 96 h): > 100 µM
O=c1[nH]cc(F)c(=O)[nH]1  IC50 (ReNcell VM; cell viability, live/dead 3D alginate microarray; 24 h exposure plus 48 h): 8.4 µM
